Experimental data from different studies.
A part holds a random share of what one study measured. Substitutions count along the parent as printed.
Chain of UniProt Q96B02 (whole entry, looked up): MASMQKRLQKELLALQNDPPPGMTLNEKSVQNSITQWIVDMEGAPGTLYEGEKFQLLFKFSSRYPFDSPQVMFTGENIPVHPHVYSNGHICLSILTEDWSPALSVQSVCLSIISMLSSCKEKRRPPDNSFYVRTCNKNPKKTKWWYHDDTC
Chain of UniProt P49459 (whole entry, looked up): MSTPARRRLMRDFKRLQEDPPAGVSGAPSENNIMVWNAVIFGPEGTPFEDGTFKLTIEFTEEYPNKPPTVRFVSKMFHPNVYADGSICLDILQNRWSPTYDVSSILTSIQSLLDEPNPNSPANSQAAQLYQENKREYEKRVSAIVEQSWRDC
Chain of UniProt P61077 (whole entry, looked up): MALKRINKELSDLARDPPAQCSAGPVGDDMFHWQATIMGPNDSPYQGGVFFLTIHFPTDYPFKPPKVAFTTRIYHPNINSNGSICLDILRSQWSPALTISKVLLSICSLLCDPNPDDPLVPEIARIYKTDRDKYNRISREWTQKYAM

Block 1
Target: Fragile X messenger ribonucleoprotein 1, C-terminal low-complexity region (Fmr1, Mus musculus, UniProt P35922)
Technique: RNA Bind-n-Seq
Molecule type: RNA
Medium: in vitro
Tested at: 200 nM
Setting: whole 134-nt RNA, ends assumed
Added: 150 mM KCl
Baseline: input library
Reading: higher = stronger binding
Oligonucleotide | log2 enrichment
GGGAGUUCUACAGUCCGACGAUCGAGGAGACUCUGCGCAGAGCACUUUGGGUCCGGAGGGCGAGACUCCGGCGGAAGCAUUCCCGGGCGGGUGACCCAGCACGGUCCCUCUUGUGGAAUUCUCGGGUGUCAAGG | -1.29
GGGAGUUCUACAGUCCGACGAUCACUAUGCAGGUGGGCAUCUUUGGGAAGUGGGGCAAGGGGGGGAUAGGGAGGGGGGUAACACUUUGGGAACAGGUGGUCCCAGGUCGUUUCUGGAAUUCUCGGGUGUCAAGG | 0.705
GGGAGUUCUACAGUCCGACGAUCCCUGUGCUACACAUCGUAUGUACCGAAUCGGGGCCCCCCCGGCCCCCCCGGGCCCCCCCGGAAAGUAUUAUGUUACGCCGUUCGGAUCUGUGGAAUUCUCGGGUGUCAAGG | -0.481
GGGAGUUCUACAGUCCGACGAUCUGGGAGGUGGAUUUUGUUUAUUUUUUUAGCUCAUUUCCAGGGGUGGGAAUUUUUUUUUAAUAUGUCUCAUGAAUAAAGUUGUUUUUGAAAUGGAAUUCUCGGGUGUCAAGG | 0.213
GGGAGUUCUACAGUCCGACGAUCCUGUGCUACACAUCGUAUGUACCGAAUCGGGCCCCCCGGGGCCCCCCGGGGCCCCCCGGGGAAAGUAUUAUGUUACGCCGUUCGGAUCUGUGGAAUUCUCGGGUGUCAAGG | -1.41
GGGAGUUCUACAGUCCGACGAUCCUCAAGUCCUGUGCUACACAUCGUAUGUACCGAAUCGGGGAGGGAGGGGAGGGGAAAGUAUUAUGUUACGCCGUUCGGAUCUGCACUUCCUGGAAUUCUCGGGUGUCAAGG | 1.16
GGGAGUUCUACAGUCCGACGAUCAAGUCCUGUGCUACACAUCGUAUGUACCGAAUCGGUUUGGUUUUUUUGGAAAAAGGAAAGUAUUAUGUUACGCCGUUCGGAUCUGCACUUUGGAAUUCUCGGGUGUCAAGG | -0.887
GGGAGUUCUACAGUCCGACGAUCACCAUGCAGGUGGGCAUCUUUGGGAAGUGGGGCAAGGGGGGGAUAGGGAGGGGCGUAACACUUUGGGAACAGGUGGUCCCAGGUCGUUUCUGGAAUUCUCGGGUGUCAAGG | 0.801

Block 2
Molecule: ANYISAHTKDCPKCNICIEKNGGCNHMQCSKCKHDFCWMCLGDWKTHGSE (ARIH2 RING domain (UniProt O95376))
Technique: yeast two-hybrid
Molecule type: peptide
Medium: yeast
Setting: mostly zero background
Baseline: not given
Reading: higher = stronger interaction
target | lacZ reporter activity
UBE2A UBC core domain (UniProt P49459) | 0
UBE2W UBC core domain (UniProt Q96B02) | 0
UBE2D3 UBC core domain (UniProt P61077) | 0

Block 3
Target: RING finger protein unkempt homolog, zinc fingers 1-6, GST-SBP tag (UNK, Homo sapiens, UniProt Q9C0B0, residues 30-357)
Chain of UniProt Q9C0B0 (30-357, looked up): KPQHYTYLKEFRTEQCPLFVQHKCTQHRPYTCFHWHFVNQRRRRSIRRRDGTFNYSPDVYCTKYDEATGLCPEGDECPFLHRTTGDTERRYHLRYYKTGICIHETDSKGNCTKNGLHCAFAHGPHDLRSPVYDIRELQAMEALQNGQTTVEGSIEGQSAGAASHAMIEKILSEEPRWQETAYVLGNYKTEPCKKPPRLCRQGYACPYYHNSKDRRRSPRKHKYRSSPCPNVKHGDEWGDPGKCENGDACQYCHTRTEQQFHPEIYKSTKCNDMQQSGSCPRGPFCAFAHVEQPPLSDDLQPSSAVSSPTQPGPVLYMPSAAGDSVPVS
Technique: RNA Bind-n-Seq
Molecule type: RNA
Medium: in vitro
Tested at: not given
Setting: RNA with constant flanks, human and mouse sites, ends assumed
Baseline: input RNA pool
Reading: higher = stronger binding
Oligonucleotide | bound/input enrichment [ratio]
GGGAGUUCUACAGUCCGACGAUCGCUCGGCAGCAGCGGCCCCGCCGGCCGGAGCGGGGGGGUGGGGCGCCGAGUGCGCGGGGAGGGGGGUCCUGGUCCUCGGCUCCUCGACUUGGUCGCGCCUCGACAGCGAACAUGUCUCGGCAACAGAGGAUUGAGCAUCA | 1.32
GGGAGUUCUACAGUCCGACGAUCUUUUAAAGAACAAAAUAAAAACCAGAGGCCUGUCUCCACUUUAAAUCUGUCCUGGACAGUCUUUAUCAUGCAAGCGGAAGGUGGCAUUGCCGGAAGCACGCCGUUAACUUACACUGCCACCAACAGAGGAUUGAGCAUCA | 0.163
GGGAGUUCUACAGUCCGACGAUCACUUGGCUGCCUCGCAGGCAGCCUCCGUUCCUCCCGCUCUCUUGCGCGUGUGCUUUUGUUUUUUAUUUUGAACAGACGUUUUAAAAGAAAAAAAAACAACUACCUUCUGUCCUAGAAGACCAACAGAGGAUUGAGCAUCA | 0.169
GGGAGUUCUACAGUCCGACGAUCCAGAGAUAAAAAUAAGUAAUCCCACUGAAUUCCAGAAUCAUGAAAAGCAGGAAAGCCAGGAUCUCAGAGCUACUGCAAAAGUUCCUUCUCCACCAGACGAGCACCAAGAAGCUGAGAAUGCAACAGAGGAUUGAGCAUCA | 0.248
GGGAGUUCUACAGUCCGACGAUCCUGGGAGAUCUUCGAACUUUGGAAUUGCUUCUUAUCUGUGCAGGCCACCCUCAGUAUGAGGUAGUAGAAAUUUCCUUUAACUUUUGGUACCGACUAGGAGAACAUUUAUACAAAACCAAUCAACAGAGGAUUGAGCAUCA | 0.787
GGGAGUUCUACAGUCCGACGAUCAGGGCCGCAACUGCCGUCCAGGCUUAAGAGGGCUUCCGCGAUGCCUUUGUCCGGAGUAGUCAGUCAGCUCCUGGAACUGUGAGUCCGCCCCAGCUCCCAGUCCCUUCCCUCACGUCCUGCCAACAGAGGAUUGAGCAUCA | 0.149
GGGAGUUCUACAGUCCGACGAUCAAAAGUGCUGAAGAUGCUAAAACUAUUUAUGAAUUCACAGACACAGUGAUAAGGAUCAGAAACCGGCACAAUGAUGUCAUUCCCACCAUGGCCCAGGGUGUGACUGAAUACAAGGAGAGCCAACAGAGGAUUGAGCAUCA | 0.174
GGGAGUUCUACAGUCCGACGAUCGGACAUCUCCAGUCAGAAAGUGGAGCAGUUCCGAAGAGGAAAGACCCCUUAACACAUGCUAGUAAUUCAUUGCCUCGAUCAAAAACUGUCCUGAAAAGUGGCUCCGCAGGGCUCUCCGGUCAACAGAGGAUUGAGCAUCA | 0.977

Block 4
Target: CCNE1, cyclin fold, Cln2 fusion (human)
Technique: yeast growth competition, sequencing
Medium: yeast
Setting: strong parent motif
Baseline: not given
Reading: higher = stronger binding
Starting sequence: viral docking peptide; KGVKRKLFAEDSS
Substitution | normalised enrichment score
KGVKRKLGAEDSS [F8G] | 0.155
KGVKRKLFAEDSA [S13A] | 8.43
KGVKRKLFAHDSS [E10H] | 6.64
KSVKRKLFAEDSS [G2S] | 7.22
KGVKRKLFAYDSS [E10Y] | 6.18
KGVKRPLFAEDSS [K6P] | 1.64
KGVKRKLFAEVSS [D11V] | 6.93
KGVKRKQFAEDSS [L7Q] | 0.122
KGVKRKLFACDSS [E10C] | 6.72
KFVKRKLFAEDSS [G2F] | 7.2
KGVKRKLFAEDIS [S12I] | 7.57
KGVKRELFAEDSS [K6E] | 5.57
KGVKRKLHAEDSS [F8H] | 0.236
KGVKRKWFAEDSS [L7W] | -0.232
KGVKRKLFAGDSS [E10G] | 6.8
KEVKRKLFAEDSS [G2E] | 6.97
KGVKRKLFAEDDS [S12D] | 7.42

Excerpt of the above (block 1):
Oligonucleotide | log2 enrichment
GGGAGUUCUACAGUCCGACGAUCCUCAAGUCCUGUGCUACACAUCGUAUGUACCGAAUCGGGGAGGGAGGGGAGGGGAAAGUAUUAUGUUACGCCGUUCGGAUCUGCACUUCCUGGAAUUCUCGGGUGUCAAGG | 1.16
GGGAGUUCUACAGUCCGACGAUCGAGGAGACUCUGCGCAGAGCACUUUGGGUCCGGAGGGCGAGACUCCGGCGGAAGCAUUCCCGGGCGGGUGACCCAGCACGGUCCCUCUUGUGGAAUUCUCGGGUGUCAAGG | -1.29
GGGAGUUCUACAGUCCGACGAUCACUAUGCAGGUGGGCAUCUUUGGGAAGUGGGGCAAGGGGGGGAUAGGGAGGGGGGUAACACUUUGGGAACAGGUGGUCCCAGGUCGUUUCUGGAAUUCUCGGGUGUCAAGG | 0.705
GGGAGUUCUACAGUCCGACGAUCCUGUGCUACACAUCGUAUGUACCGAAUCGGGCCCCCCGGGGCCCCCCGGGGCCCCCCGGGGAAAGUAUUAUGUUACGCCGUUCGGAUCUGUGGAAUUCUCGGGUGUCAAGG | -1.41
